Experimental data collected from several papers.
Parts stem from different laboratories: compare values within a part only. “And” joins repeats or separate records; there may be more than shown. In brackets after ≈: the same amount, converted by molar mass.
Sequence of UniProt Q9UKT9 (whole entry, looked up): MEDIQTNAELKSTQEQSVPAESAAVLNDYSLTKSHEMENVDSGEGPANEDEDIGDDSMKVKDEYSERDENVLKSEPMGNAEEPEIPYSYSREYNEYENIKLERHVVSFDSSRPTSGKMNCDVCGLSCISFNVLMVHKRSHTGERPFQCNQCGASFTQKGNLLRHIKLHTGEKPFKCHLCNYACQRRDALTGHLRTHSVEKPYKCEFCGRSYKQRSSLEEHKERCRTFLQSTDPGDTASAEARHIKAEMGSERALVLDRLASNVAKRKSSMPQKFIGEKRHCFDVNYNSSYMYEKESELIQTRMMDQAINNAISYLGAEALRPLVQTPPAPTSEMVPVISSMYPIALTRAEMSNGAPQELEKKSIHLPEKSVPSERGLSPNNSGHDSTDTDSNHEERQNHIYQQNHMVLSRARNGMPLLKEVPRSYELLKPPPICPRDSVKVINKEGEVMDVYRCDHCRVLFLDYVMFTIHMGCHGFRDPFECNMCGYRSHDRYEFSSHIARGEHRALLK
Sequence of UniProt P15170 (whole entry, looked up): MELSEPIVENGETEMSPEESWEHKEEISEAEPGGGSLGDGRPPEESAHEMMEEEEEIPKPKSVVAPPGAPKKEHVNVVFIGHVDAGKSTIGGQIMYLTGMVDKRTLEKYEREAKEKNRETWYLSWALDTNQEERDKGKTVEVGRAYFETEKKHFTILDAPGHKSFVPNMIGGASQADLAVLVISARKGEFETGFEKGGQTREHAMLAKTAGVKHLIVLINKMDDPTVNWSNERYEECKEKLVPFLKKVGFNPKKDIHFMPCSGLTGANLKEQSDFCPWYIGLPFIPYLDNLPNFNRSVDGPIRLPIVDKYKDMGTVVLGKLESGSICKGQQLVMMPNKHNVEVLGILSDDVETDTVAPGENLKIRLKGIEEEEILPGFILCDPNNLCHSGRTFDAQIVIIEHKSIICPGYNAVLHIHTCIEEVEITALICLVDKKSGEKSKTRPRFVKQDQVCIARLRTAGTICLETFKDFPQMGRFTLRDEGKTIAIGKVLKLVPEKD

Study 1
SMILES: Cn1cc(-c2cccc(CN3CCC4(CC3)COc3c4ccc4c3CN([C@@H]3CCC(=O)NC3=O)C4=O)c2)cn1
Mode: degrader
Method: HiBiT
Cell line: HEK293
DNA-binding protein Ikaros: DNA-binding protein Ikaros (Homo sapiens, UniProt Q13422)
Sequence of UniProt Q13422 (whole entry, looked up): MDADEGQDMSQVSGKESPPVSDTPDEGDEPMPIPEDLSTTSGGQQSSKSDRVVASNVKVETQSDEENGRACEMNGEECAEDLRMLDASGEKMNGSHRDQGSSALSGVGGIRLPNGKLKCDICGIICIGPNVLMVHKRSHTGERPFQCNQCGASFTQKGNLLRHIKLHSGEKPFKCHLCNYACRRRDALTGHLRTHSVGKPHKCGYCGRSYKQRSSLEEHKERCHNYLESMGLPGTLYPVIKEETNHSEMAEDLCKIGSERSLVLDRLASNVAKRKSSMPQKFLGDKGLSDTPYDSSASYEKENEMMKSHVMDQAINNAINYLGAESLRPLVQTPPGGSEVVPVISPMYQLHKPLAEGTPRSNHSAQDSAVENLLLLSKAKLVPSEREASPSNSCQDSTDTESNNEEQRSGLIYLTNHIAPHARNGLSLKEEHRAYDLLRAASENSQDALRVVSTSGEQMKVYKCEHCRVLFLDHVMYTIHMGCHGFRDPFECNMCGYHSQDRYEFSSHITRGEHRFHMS
SALL4: Sal-like protein 4 (SALL4, Homo sapiens, UniProt Q9UJQ4)
Sequence of UniProt Q9UJQ4 (whole entry, looked up): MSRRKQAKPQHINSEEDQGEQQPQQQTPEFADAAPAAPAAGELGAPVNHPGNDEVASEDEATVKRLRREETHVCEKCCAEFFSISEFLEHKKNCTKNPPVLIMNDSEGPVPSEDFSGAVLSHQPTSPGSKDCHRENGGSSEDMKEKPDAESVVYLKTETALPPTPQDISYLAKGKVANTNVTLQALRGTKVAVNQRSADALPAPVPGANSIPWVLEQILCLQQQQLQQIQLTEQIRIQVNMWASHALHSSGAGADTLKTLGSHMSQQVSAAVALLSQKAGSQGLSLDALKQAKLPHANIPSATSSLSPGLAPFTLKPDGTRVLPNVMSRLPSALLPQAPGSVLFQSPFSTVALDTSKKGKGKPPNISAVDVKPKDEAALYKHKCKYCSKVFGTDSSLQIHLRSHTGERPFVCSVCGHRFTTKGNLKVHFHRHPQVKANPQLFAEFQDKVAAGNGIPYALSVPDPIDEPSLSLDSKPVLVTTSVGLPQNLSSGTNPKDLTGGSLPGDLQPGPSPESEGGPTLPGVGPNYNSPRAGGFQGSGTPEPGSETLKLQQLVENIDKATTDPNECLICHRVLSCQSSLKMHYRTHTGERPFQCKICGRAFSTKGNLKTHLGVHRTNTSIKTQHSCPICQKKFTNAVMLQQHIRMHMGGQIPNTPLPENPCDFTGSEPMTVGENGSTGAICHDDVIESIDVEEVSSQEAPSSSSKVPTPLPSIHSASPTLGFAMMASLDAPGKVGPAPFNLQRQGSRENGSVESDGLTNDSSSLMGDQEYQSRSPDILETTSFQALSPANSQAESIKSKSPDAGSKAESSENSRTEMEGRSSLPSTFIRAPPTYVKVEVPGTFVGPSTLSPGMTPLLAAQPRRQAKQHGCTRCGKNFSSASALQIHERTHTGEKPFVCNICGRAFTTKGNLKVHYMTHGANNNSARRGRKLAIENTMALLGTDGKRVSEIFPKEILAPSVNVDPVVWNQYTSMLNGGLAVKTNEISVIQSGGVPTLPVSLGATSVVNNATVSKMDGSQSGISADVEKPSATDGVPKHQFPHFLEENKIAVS
CSNK1A1: Casein kinase I isoform alpha (CSNK1A1, Homo sapiens, UniProt P48729)
Sequence of UniProt P48729 (whole entry, looked up): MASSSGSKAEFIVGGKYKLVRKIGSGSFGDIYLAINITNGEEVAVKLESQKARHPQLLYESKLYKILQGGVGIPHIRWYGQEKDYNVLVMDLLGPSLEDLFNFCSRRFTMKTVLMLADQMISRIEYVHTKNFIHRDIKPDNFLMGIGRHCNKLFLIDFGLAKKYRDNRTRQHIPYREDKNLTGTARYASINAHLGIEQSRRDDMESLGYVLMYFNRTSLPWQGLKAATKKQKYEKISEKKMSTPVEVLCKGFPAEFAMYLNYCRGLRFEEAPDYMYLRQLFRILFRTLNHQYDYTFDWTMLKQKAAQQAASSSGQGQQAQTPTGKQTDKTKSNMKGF
The remaining protein was 98% and 100% (DNA-binding protein Ikaros; 3333.33 nM).
The remaining protein was 105% and 94.7% (Eukaryotic peptide chain release factor GTP-binding subunit ERF3A (GSPT1, Homo sapiens, UniProt P15170); 123.5 nM).
It gave 82.6% and 73.4% for remaining protein (SALL4; 3333.33 nM).
For DNA-binding protein Ikaros; 1.524 nM: remaining protein read 105% and 102%.
CSNK1A1; 13.72 nM — remaining protein: 98.1% and 93.9%.
SALL4; 10000 nM — remaining protein: 82.9% and 78.7%.
CSNK1A1; 1111.11 nM — remaining protein: 95.8% and 94.5%.
Zinc finger protein Aiolos (Homo sapiens, UniProt Q9UKT9); 1.524 nM — remaining protein: 102% and 101%.
The remaining protein was 93.1% and 99.5% (SALL4; 1.524 nM).
The remaining protein was 99.2% and 99.9% (DNA-binding protein Ikaros; 41.15 nM).
The remaining protein was 99.3% and 101% (CSNK1A1; 41.15 nM).

Study 2
SMILES: CCCNC(=O)COc1ccc(Br)c(C)c1
Target: Sodium-dependent neutral amino acid transporter B(0)AT1 (SLC6A19, Homo sapiens, UniProt Q695T7)
Sequence of UniProt Q695T7 (whole entry, looked up): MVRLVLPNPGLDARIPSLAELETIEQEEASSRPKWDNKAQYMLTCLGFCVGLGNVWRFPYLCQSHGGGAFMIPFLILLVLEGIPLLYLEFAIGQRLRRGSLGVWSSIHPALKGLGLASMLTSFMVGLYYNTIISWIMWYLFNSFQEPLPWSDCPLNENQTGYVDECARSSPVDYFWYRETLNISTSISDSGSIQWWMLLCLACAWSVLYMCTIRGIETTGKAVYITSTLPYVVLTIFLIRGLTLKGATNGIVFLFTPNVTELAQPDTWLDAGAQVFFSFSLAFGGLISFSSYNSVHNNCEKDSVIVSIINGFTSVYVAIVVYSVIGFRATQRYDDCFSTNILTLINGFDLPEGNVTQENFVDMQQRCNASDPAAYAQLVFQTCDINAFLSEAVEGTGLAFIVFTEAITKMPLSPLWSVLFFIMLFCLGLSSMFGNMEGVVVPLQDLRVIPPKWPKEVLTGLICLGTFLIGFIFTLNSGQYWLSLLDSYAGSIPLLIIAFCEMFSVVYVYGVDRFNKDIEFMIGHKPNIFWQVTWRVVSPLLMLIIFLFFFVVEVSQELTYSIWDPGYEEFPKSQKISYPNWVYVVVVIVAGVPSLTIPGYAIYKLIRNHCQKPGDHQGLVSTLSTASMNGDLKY
Mode: inhibitor
Cell line: CHO-BC cells
Notes: unit not given
Relative to: uninhibited cells
For FLIPR membrane potential; 0.03 µM: “remaining transport activity” read 0.77.
For FLIPR membrane potential; 0.01 µM: “remaining transport activity” read 0.886.
The “remaining transport activity” was 0.867 (L-[14C]leucine uptake; 0.03 µM, 6 min, 37 °C, together with: GPNA 3 mM, JPH203 3 µM).

Study 3
Compound: O=C1CC[C@H](Nc2ccc(N3CCNCC3)c(F)c2)C(=O)N1
Target: Protein cereblon (CRBN, Homo sapiens, UniProt Q96SW2)
Sequence of UniProt Q96SW2 (whole entry, looked up): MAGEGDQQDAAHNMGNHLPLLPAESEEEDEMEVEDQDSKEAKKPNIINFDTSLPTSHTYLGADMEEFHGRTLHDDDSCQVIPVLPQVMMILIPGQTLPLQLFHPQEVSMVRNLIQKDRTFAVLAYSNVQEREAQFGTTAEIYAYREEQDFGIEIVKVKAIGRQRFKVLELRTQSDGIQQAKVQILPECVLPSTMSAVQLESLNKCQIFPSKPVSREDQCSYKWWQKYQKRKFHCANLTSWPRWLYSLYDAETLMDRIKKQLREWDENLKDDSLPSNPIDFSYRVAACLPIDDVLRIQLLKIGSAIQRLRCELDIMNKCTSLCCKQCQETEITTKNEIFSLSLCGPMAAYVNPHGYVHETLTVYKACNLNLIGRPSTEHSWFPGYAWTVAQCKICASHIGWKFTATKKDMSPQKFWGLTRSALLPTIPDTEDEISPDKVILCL
Observed: binding
For 30000 nM: inhibition read 102% and 98.7%.
370.37 nM — inhibition: 52.6%.
3333.33 nM — inhibition: 92.1% and 88.3%.

Study 4
Structure (SMILES): CCCCC[C@@H]1CC(=O)N[C@@H](C(C)C)C(=O)N[C@H](CCCNC(=N)N)C(=O)N[C@@H](C(C)C)C(=O)NCC(=O)N2CCC[C@H]2C(=O)N[C@@H](CC(C)C)C(=O)N[C@H](CCCNC(=N)N)C(=O)N[C@@H](CCC(=O)O)C(=O)N[C@H](Cc2ccc(O)cc2)C(=O)N[C@H](Cc2c[nH]c3ccccc23)C(=O)NCCCC(=O)O1
Organism: Staphylococcus aureus
Strain: USA300
together with: menaquinone 16 µg/mL — MIC: 64 µg/mL (≈ 43.1 µM).
It gave 1 µg/mL (≈ 0.674 µM) for MIC (together with: ubiquinone 0 µg/mL).
together with: menaquinone 0.25 µg/mL — MIC: 2 µg/mL (≈ 1.35 µM).
The MIC was 2 µg/mL (≈ 1.35 µM) (together with: menaquinone 0.125 µg/mL).
The MIC was greater than 64 µg/mL (together with: menaquinone 32 µg/mL).
It gave 1 µg/mL (≈ 0.674 µM) for MIC (together with: ubiquinone 64 µg/mL).
For together with: menaquinone 1 µg/mL: MIC read 8 µg/mL (≈ 5.39 µM).
The MIC was 1 µg/mL (≈ 0.674 µM) (together with: menaquinone 0 µg/mL).

Excerpt of the above (study 1):
The remaining protein was 105% and 94.7% (Eukaryotic peptide chain release factor GTP-binding subunit ERF3A (GSPT1, Homo sapiens, UniProt P15170); 123.5 nM).
The remaining protein was 98% and 100% (DNA-binding protein Ikaros; 3333.33 nM).
The remaining protein was 99.3% and 101% (CSNK1A1; 41.15 nM).
CSNK1A1; 13.72 nM — remaining protein: 98.1% and 93.9%.
